Experimental data pooled from the literature.
Parts stem from different laboratories: compare values within a part only.
Chain of UniProt P49674 (whole entry, looked up): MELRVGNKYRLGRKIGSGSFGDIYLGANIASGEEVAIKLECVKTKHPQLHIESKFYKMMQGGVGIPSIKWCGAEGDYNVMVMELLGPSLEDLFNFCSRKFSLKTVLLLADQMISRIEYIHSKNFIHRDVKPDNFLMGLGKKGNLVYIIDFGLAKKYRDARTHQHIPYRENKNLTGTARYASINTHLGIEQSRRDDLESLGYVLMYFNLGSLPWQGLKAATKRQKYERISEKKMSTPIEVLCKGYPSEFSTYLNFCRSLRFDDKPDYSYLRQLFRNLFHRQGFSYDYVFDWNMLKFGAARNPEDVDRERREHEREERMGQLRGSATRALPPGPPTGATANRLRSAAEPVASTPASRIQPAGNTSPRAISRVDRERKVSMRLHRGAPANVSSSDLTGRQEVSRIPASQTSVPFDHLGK
Chain of UniProt P17948 (whole entry, looked up): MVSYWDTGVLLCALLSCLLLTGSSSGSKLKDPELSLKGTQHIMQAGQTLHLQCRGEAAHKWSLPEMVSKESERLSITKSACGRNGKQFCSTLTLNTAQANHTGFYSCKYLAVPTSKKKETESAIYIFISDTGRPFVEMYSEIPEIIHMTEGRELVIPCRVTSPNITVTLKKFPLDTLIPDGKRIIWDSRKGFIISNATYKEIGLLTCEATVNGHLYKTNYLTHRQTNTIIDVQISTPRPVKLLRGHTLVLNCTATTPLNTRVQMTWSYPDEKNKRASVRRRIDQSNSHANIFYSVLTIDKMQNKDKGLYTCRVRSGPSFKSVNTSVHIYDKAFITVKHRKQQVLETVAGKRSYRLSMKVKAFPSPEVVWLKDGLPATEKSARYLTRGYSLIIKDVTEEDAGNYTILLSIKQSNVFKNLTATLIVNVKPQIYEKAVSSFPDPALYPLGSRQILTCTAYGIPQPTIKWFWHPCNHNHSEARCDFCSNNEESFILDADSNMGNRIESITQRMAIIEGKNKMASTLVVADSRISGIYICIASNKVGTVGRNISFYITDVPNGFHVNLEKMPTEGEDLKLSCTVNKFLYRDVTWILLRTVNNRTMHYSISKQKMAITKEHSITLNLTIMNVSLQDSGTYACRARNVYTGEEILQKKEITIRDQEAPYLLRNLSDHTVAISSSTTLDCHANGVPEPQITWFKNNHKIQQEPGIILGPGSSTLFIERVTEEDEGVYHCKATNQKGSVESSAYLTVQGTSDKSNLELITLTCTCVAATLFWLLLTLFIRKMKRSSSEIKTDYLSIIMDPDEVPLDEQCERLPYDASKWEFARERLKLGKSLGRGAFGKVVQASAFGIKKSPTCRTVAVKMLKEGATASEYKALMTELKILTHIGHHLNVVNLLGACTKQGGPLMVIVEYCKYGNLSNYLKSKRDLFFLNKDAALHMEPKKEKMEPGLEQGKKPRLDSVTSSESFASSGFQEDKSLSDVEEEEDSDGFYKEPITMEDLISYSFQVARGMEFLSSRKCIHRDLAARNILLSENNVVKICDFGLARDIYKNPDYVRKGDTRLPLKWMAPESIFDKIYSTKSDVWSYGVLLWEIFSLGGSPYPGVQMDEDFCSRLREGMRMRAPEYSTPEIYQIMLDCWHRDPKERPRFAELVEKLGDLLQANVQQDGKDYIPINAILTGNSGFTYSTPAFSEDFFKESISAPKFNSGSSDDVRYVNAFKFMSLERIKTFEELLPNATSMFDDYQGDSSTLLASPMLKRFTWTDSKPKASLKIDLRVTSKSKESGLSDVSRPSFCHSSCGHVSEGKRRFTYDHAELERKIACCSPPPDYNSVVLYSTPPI
Chain of UniProt P35368 (whole entry, looked up): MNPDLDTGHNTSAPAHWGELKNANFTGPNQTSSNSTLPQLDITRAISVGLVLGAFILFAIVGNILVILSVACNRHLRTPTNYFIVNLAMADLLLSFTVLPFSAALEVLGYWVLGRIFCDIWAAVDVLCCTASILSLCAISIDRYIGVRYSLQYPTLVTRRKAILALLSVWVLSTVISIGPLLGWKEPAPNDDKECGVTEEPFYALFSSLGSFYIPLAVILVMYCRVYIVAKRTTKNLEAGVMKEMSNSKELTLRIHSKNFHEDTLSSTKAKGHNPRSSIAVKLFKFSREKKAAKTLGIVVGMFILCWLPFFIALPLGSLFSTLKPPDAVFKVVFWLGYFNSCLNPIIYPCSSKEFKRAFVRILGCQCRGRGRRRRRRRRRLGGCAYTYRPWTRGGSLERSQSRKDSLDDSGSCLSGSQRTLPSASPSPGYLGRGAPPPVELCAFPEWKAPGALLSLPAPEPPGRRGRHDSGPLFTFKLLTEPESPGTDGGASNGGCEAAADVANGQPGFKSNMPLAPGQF

Study 1
Compound: Oc1cccc(-c2nc(N3CCOCC3)c3oc4ncccc4c3n2)c1
Read-out: enzyme activity
Mode: inhibitor
Concentration: 0.5 µM
Baseline: control
It gave 83.6% for remaining activity (FLT1 (Homo sapiens, UniProt P17948)).
The remaining activity was 85.5% (Cyclin-dependent kinase 2, with cyclin E (CDK2, Homo sapiens, UniProt P24941)).
The remaining activity was 87.1% (CSNK1E (Homo sapiens, UniProt P49674)).

Study 2
Target: RING finger protein unkempt homolog, zinc fingers 1-6, GST-SBP tag (UNK, Homo sapiens, UniProt Q9C0B0, residues 30-357)
Chain of UniProt Q9C0B0 (30-357, looked up): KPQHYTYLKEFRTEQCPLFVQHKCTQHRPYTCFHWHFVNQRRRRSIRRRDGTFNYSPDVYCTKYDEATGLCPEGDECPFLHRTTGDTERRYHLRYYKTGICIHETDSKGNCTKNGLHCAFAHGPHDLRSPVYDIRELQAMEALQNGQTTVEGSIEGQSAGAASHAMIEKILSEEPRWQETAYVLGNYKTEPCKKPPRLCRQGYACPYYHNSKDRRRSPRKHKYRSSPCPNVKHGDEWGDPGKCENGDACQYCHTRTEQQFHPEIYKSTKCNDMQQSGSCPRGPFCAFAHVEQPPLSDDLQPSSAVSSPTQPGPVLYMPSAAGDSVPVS
Technique: RNA Bind-n-Seq
Molecule type: RNA
Matrix: in vitro
Concentration: not given
Notes: RNA with constant flanks, ends assumed
Baseline: input RNA pool
Direction: higher = stronger binding
`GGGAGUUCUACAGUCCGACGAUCGUGGAGCCGGCGGACGCCUCCGGUACCGAGAAAGCUUUCGAGCCAGCAACCGGCCGAGUGACCGCUACUUUCACAUGUUCAGGAGAAAAGGAAGUAAAUUUGGCUGUUCAAAAUGCAAAGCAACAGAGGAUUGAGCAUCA` has a bound/input enrichment of 0.13 ratio.
For `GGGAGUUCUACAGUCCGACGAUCGAUUGUCUUCAGUCCUGGGAACCUUGGCCUCGACAGCCCUAUUUAUGCAUACAAGUAAUAUACCGAUGAAUGUCUCAAGUAAAUAUGGCUUAUGGAUGGUAGUGGAUAAUUUGAUGAGAACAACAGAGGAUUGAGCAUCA`, the bound/input enrichment was 0.402 ratio.
`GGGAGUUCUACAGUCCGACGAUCAGAAGUUGCAAGCAGUGUUCCAAAAGUUGUAGGCUCUGCUGUUGGUAGUGGGUCCAUCACCCGUAACAUUGUGGCUUCUAGCAGUUUGCCUCCAGCUACUAUUGCUCCUCCAAAACCAGCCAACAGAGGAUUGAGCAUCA` has a bound/input enrichment of 0.149 ratio.
For `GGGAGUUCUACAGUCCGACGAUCUUUGAUGUCAUGGUGAUGCCUAAUCUCUAUGGUAACAUUGUCAACAACGUCUGUGCAGGGCCCGUUGGAGGCCCAGGCCUUGUGGCUGGGGCCAACUAUGGCCAUGUGUAUGCAGUAUUCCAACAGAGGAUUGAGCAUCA`, the bound/input enrichment was 0.166 ratio.
`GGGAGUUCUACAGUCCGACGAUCUCUGGUGGUGAAUCCUCCAUAGUCUGGAGAUCUCAGCCCUGCUGAGCUGAUGAUGCUGACUACCGGAGAUGUUAUUAAACAACUGAUUGAAGCCCACGAGCAGGGGAAAGACAUCGAUCUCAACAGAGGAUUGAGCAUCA` has a bound/input enrichment of 0.233 ratio.
With `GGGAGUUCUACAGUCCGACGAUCUGUGCUUUUAUAUAACCAUUUUGUUAUUUGAAUCUUGAAAAACUAGUUUUCUUAUAUUCCUACCGUCUUGGUUUUUUUAAAGGCCUUUGCAUACACCUUUAUGAUAGUUUAAGAUUGACUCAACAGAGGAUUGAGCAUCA` the bound/input enrichment was 8.21 ratio.
`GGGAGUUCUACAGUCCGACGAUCAGUCUUGCAUCUUUACUAGAACUAUUGAAAGGUGUCUUCAGCACAUGUAAAGGGGACCUCUCCGAAGUUACAGAUGGCAAUGUGAAGACCCAGCCUGCAGUCCUAGAGAAUCUGGUCUUCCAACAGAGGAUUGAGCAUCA` gave a bound/input enrichment of 0.144 ratio.
For `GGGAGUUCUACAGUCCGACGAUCGCAUCCUGUGAAAAUACUCUUAAUACAUUAAGAUAUGCAAAUAGAGUAAAGGAGUUUGGAAUCCGUCCAUCAGACAUUCCCUUCUCACAGGGUAGUGGCAGUCGCCCUGAUCUCUCUCCUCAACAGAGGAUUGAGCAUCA`, the bound/input enrichment was 0.121 ratio.

Study 3
Target: Centromere-binding protein 1, full length, His-tagged (CBF1, Saccharomyces cerevisiae, UniProt P17106, residues 1-351)
Chain of UniProt P17106 (whole entry, looked up): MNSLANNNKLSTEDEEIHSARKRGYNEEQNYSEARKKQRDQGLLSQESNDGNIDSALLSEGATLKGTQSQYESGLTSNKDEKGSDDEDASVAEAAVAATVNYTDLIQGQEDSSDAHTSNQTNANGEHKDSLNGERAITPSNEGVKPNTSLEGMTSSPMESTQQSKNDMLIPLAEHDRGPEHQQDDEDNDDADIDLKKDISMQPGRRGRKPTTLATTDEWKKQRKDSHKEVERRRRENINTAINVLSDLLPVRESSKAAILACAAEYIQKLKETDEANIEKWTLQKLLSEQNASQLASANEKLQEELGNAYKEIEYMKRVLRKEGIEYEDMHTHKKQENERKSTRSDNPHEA
Technique: competition protein-binding microarray
Molecule type: double-stranded DNA, one strand shown
Matrix: in vitro
Concentration: 2 µM
Notes: whole 60-bp probe, lowest competitor level
With: Pho4 competitor, 0.05 µM
Direction: higher = stronger binding
`CATACCCAACCTTTTCACGTGATTTAAGATATTTGTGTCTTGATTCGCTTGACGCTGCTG` gave a fluorescence intensity of 3850 a.u.
For `CTTTCCCGATCTTGTTAGGTGGGTGTAGCACATTTGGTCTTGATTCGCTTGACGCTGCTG`, the fluorescence intensity was 60.5 a.u.
`CCAGGCCTCCAAGCCCACGTGACAACAAGCTCCGCCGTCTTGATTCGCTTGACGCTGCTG` gave a fluorescence intensity of 3240 a.u.
`AAATTACTAAGTTGCCGGGTGGGTGACGCCGTATGAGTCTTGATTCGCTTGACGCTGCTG` has a fluorescence intensity of 64.6 a.u.
For `TTTTTAATGATTTCGCATGTGGATGTGTTCAGTATCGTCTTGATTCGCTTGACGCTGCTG`, the fluorescence intensity was 107 a.u.
For `GTCTTGTCTCATTGTCGAGTGGGTGTCCCCACTTCAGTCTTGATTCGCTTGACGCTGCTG`, the fluorescence intensity was 77.2 a.u.
`GTCTTGTCTCATTGTGCTGTGGGTGTCCCCACTTCAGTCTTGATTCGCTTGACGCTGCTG` gave a fluorescence intensity of 73 a.u.
The fluorescence intensity of `AGTAGAAACAATAGTATCGTGATGGGATCCCTCTTGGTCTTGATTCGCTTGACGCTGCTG` is reported as 119 a.u.

Mixed results
The inhibition of `Cc1noc([C@H]2C[C@@H](c3ccc(C(F)(F)F)cc3)CN(C(=O)N3CCS(=O)(=O)C3)C2)n1` is reported as -1.18% (Alpha-1B adrenergic receptor (ADRA1B, Homo sapiens, UniProt P35368); ligand displacement; 10 µM).

Repeated from above (study 2):
`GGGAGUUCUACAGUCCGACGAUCAGAAGUUGCAAGCAGUGUUCCAAAAGUUGUAGGCUCUGCUGUUGGUAGUGGGUCCAUCACCCGUAACAUUGUGGCUUCUAGCAGUUUGCCUCCAGCUACUAUUGCUCCUCCAAAACCAGCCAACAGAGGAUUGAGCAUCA` has a bound/input enrichment of 0.149 ratio.
For `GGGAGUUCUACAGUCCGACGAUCUUUGAUGUCAUGGUGAUGCCUAAUCUCUAUGGUAACAUUGUCAACAACGUCUGUGCAGGGCCCGUUGGAGGCCCAGGCCUUGUGGCUGGGGCCAACUAUGGCCAUGUGUAUGCAGUAUUCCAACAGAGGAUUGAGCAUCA`, the bound/input enrichment was 0.166 ratio.
For `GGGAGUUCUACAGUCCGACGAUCGAUUGUCUUCAGUCCUGGGAACCUUGGCCUCGACAGCCCUAUUUAUGCAUACAAGUAAUAUACCGAUGAAUGUCUCAAGUAAAUAUGGCUUAUGGAUGGUAGUGGAUAAUUUGAUGAGAACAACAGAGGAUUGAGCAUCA`, the bound/input enrichment was 0.402 ratio.
